{"data": "Published values gathered from unrelated publications", "note": "A part holds a random share of what one study measured."}
{"data": "Block 1", "target": "Sal-like protein 4, full length isoform A (SALL4, Homo sapiens, UniProt Q9UJQ4, residues 1-1053)", "technique": "universal PBM", "form": "double-stranded DNA, one strand shown", "sample": "in vitro", "concentration": "600 nM", "setting": "8-mer, flanks averaged, mean of replicates", "reading": "higher = stronger binding", "UniProt Q9UJQ4, sequence (whole entry, looked up)": "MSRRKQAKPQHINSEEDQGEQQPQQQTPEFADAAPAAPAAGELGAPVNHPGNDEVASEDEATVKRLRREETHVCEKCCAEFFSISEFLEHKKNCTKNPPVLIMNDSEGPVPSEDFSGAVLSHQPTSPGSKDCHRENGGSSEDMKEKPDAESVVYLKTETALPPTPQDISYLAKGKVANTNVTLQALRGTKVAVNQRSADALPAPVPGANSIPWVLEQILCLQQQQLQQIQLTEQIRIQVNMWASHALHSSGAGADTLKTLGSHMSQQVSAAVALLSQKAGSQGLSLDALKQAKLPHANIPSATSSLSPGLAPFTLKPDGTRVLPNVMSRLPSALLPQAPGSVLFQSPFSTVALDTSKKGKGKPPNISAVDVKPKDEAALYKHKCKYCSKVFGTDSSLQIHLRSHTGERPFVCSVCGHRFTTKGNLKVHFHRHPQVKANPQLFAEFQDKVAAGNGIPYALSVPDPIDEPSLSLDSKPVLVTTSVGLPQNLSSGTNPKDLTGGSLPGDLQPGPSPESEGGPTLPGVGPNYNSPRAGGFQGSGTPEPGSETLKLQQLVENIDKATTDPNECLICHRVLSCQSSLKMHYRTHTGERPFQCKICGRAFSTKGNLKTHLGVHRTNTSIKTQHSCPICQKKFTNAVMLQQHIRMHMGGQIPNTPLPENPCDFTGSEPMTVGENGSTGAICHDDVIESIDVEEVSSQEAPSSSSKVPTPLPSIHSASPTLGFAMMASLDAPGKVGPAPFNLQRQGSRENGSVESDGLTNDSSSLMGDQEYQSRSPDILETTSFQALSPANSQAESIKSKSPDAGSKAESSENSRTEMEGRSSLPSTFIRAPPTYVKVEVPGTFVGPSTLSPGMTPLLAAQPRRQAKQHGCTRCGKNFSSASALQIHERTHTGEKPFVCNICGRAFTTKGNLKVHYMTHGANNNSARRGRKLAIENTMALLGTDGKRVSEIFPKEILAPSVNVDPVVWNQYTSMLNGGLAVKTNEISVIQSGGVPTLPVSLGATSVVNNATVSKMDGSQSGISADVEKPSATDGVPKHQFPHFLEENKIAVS"}
{"Strand": "AAGGTTAT", "E-score": 0.203}
{"Strand": "GGACTGCA", "E-score": -0.115}
{"Strand": "CAACGCTA", "E-score": -0.114}
{"Strand": "CCAGTGGC", "E-score": -0.339}
{"Strand": "GGAATAGA", "E-score": 0.0921}
{"data": "Block 2", "target": "Histone acetyltransferase KAT6A, both winged helices, GST fusion (KAT6A, Homo sapiens, UniProt Q92794, residues 1-181)", "technique": "protein binding microarray", "form": "double-stranded DNA, one strand shown", "sample": "in vitro", "concentration": "not given", "setting": "8-mer, flanks averaged, mean of 2 arrays, mostly near background", "reference": "not given", "reading": "higher = stronger binding", "Construct (chain)": "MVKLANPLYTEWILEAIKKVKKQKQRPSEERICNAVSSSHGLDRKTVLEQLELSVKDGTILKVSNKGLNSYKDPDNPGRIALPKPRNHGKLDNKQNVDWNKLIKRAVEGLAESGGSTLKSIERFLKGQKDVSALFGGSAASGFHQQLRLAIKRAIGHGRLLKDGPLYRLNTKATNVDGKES"}
{"Strand": "CACCGAGC", "E-score": -0.0095}
{"Strand": "ATCCGGGG", "E-score": 0.039}
{"Strand": "ACAGCGGA", "E-score": 0.0528}
{"Strand": "CATCAATA", "E-score": -0.194}
{"Strand": "CACCGAGA", "E-score": -0.104}
{"Strand": "CTACGGAA", "E-score": 0.207}
{"data": "Single results of other studies"}
{"Molecule": "SEC16A (Homo sapiens, UniProt O15027)", "tested on": "PRRC2C (Homo sapiens, UniProt Q9Y520)", "test": "cross-linking MS", "test system": "cell fractions", "setting": "added: DMTMM", "measurement": "cross-linked residues", "result": "E2098 to K1412"}
{"Molecule": "PhoQ, residues 284 288 289 292 302 303 TTSMTC", "tested on": "PhoP, residues 12 14 15 18 19 NIMAP (Escherichia coli, UniProt P23836)", "test": "Sort-seq, measured: YFP reporter", "test system": "E. coli", "setting": "PhoQ-PhoP variant library, added: 10 µM Mg2+", "scale": "reference: high Mg2+ state, higher = stronger signaling", "measurement": "fold induction", "result": 0.719}
{"note": "Repeated from above (block 2):"}
{"Strand": "CATCAATA", "E-score": -0.194}
{"Strand": "CACCGAGA", "E-score": -0.104}
